Experimental data gathered from unrelated publications.
Lines come from different studies, so protocols differ. Numbers after ± are the reported error.
GRM2: Metabotropic glutamate receptor 2 (GRM2, Homo sapiens, UniProt Q14416)
UniProt Q14416, sequence (whole entry, looked up): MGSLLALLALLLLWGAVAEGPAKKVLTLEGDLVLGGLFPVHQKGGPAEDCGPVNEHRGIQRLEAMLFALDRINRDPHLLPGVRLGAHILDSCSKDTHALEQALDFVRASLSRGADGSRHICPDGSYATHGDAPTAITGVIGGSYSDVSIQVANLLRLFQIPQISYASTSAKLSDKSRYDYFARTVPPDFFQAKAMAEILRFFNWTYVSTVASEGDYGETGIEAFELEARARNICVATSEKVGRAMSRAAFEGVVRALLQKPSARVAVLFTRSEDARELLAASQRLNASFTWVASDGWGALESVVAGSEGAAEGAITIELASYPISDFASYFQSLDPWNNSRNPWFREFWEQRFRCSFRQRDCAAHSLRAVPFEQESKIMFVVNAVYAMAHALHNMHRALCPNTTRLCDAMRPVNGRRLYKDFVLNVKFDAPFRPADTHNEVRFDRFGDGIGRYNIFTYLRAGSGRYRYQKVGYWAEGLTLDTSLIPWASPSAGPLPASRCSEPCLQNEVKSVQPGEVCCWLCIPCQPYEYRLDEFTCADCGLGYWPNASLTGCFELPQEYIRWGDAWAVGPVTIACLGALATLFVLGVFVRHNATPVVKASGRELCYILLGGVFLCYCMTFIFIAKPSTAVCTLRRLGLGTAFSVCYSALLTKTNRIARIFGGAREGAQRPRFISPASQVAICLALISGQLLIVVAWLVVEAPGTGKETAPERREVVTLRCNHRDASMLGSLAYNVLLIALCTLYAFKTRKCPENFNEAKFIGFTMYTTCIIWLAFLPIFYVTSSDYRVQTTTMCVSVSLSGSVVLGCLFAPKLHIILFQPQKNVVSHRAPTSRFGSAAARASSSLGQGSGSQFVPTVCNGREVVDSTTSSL
CDK2 with cyclin A: Cyclin-dependent kinase 2, with cyclin A (CDK2, Homo sapiens, UniProt P24941)
UniProt Q8IAS0, sequence (whole entry, looked up): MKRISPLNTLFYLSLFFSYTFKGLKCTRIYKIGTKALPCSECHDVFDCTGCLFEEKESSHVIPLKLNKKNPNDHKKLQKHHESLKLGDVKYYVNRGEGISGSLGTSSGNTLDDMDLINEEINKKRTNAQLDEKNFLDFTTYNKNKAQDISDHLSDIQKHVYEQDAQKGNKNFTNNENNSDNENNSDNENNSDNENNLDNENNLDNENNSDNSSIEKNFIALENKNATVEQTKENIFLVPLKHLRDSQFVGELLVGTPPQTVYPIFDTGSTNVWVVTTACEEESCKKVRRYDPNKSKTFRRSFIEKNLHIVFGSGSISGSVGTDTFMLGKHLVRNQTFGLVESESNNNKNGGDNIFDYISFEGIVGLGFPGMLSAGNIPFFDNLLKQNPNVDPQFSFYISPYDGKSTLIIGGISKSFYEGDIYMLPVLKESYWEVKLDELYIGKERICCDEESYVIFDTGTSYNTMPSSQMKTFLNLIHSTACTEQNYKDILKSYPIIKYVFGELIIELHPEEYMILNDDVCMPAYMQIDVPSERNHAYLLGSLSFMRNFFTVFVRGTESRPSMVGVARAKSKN
UniProt Q9HC97, sequence (whole entry, looked up): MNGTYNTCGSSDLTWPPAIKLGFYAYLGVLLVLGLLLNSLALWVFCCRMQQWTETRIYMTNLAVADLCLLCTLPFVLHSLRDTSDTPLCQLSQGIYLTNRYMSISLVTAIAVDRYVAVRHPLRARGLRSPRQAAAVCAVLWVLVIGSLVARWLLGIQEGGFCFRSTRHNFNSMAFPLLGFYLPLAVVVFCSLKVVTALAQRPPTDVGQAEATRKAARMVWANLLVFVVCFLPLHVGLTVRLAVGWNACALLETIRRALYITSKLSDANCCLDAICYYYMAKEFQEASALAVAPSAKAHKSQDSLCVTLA
UniProt P56817, sequence (whole entry, looked up): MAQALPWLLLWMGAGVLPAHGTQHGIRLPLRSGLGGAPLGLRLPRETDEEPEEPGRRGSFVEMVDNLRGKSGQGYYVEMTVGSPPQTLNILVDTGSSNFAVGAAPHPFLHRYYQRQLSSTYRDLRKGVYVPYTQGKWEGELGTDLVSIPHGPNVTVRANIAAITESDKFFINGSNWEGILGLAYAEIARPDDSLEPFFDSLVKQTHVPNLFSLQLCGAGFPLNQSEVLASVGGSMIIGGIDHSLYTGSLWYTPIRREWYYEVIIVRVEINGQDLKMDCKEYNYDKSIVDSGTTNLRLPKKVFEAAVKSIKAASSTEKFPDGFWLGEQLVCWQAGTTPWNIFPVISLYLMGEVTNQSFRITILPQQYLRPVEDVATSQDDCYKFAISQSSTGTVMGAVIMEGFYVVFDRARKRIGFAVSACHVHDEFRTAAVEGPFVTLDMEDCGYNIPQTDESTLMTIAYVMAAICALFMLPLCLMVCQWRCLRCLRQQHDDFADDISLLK

| Compound | target | test | test system | setting | quantity | value |
| --- | --- | --- | --- | --- | --- | --- |
| Cc1ccc(Oc2ccc(-c3ccn4c(CC5CC5)nnc4c3C(F)(F)F)cc2F)c(C)n1 | GRM2 | agonist | – | no glutamate | EC50 | 269 nM |
| CC(C)C[C@H](NC(=O)[C@@H](NC(=O)[C@H](CCONC(=N)N)NC(=O)OCc1ccccc1)C(C)C)[C@@H](O)CC(=O)NCCc1ccccc1 | Plasmepsin X (Plasmodium falciparum, UniProt Q8IAS0) | enzyme activity, inhibitor | – | – | IC50 | 1850 nM |
| O=C[C@H](C[C@@H]1CCNC1=O)NC(=O)[C@H](CC1CCCCC1)NS(=O)(=O)c1cccc(Cl)c1 | Replicase polyprotein 1a, 3C-like proteinase (Ferret coronavirus, UniProt A0A172B201) | enzyme activity, FRET | NL-2010 | – | IC50 | 9160 ± 1720 nM |
| CCCCn1ccn2c(-c3ccc(Oc4ccnc(C)c4)c(F)c3)c(C)nc2c1=O | GRM2 | GTPγS binding, positive allosteric modulator | – | added: EC20 glutamate | EC50 | 24 nM |
| CC(C)C[C@H](NC(=O)[C@@H](NC(=O)[C@H](CCONC(=N)N)NC(=O)OCc1ccccc1)C1CCCCC1)[C@@H](O)CC(=O)NCCc1ccccc1 | Beta-secretase 1 (BACE1, Homo sapiens, UniProt P56817) | enzyme activity, inhibitor | – | – | IC50 | > 11000 nM |
| Cc1cccc(-c2ccc3nc(NC(=O)CCc4ccccc4)nn3c2)c1 | CDK2 with cyclin A | enzyme activity, inhibitor | – | – | IC50 | > 100000 nM |
| COc1ccc(CNc2ccc(-c3ccn4c(CC5CC5)nnc4c3C(F)(F)F)cc2F)cn1 | GRM2 | GTPγS binding, positive allosteric modulator | – | added: EC20 glutamate | EC50 | 14 nM |
| O=C(Nc1nc2ccc(-c3cccc4[nH]ccc34)cn2n1)C1CCCCC1 | CDK2 with cyclin A | enzyme activity, inhibitor | – | – | IC50 | > 100000 nM |
| FC(F)(F)c1c(-c2ccc3c(ccn3-c3cccnc3)c2)ccn2c(CC3CC3)nnc12 | GRM2 | agonist | – | no glutamate | EC50 | 135 nM |
| O=C(N[C@@H](CC1CCCCC1)C(=O)N[C@@H](C[C@@H]1CCNC1=O)C(O)S(=O)(=O)O)OCc1cccc(Cl)c1 (stereo partly drawn) | Replicase polyprotein 1ab, main protease (Feline coronavirus, UniProt Q98VG9) | enzyme activity, inhibitor, FRET | – | – | IC50 | 150 nM |
| O=C(Nc1nc2ccc(-c3cccc(N4CCOCC4)c3)cn2n1)C1CCCCC1 | CDK2 with cyclin A | enzyme activity, inhibitor | – | – | IC50 | > 100000 nM |
| O=C(O)c1cc(O)ccc1O | G-protein coupled receptor 35 (GPR35, Homo sapiens, UniProt Q9HC97) | β-arrestin recruitment, agonist | – | – | EC50 | > 500000 nM |

Excerpt of the above:
| Compound | target | test | test system | setting | quantity | value |
| --- | --- | --- | --- | --- | --- | --- |
| O=C(Nc1nc2ccc(-c3cccc4[nH]ccc34)cn2n1)C1CCCCC1 | CDK2 with cyclin A | enzyme activity, inhibitor | – | – | IC50 | > 100000 nM |
| FC(F)(F)c1c(-c2ccc3c(ccn3-c3cccnc3)c2)ccn2c(CC3CC3)nnc12 | GRM2 | agonist | – | no glutamate | EC50 | 135 nM |
